Experimental data of several laboratories.
Compare with care: the assays were run in different laboratories.
TMPRSS2: Transmembrane protease serine 2 (TMPRSS2, Homo sapiens, UniProt O15393)

Structure (SMILES)	tested on	assay	system	setting	endpoint	result
N=C(N)NCCC[C@H](N)C(=O)N[C@@H](CCC(N)=O)C(=O)N[C@@H](Cc1ccc(Cl)cc1)C(=O)N[C@H](CCCNC(=N)N)C(=O)c1nc2ccccc2s1	TMPRSS2	enzyme activity, inhibitor	–	1 nM	activity vs control	95%
COc1cnc(OC)n2nc(NS(=O)(=O)c3c(OCC(F)F)cccc3C(F)(F)F)nc12	L02	cell growth or viability, CCK-8	–	6.25 µM, 72 h	inhibition	0%
[2H]c1c([2H])c([C@]2([2H])CCCN2C(=O)C(C)(C)Oc2ccc3cn[nH]c3c2)c([2H])c([2H])c1C([2H])([2H])[2H]	GSK3A (Homo sapiens, UniProt P49840)	binding, competition with immobilised ligand	–	1 µM	remaining binding	74%
N=C(N)NCCC[C@@H](NC(=O)[C@H](Cc1ccc(O)cc1)NC(=O)[C@H](Cc1cscn1)NC(=O)CCc1ccccc1)C(=O)c1nc2ccccc2s1	TMPRSS2	enzyme activity, inhibitor	–	1 nM	activity vs control	33%
COc1ncccc1-c1cnn2ccc(N3CCN(C(=O)OC(C)C)CC3)nc12	MAST1 (Homo sapiens, UniProt Q9Y2H9)	binding, competition with immobilised ligand	–	1 µM	remaining binding	82%
O=C1CCCC2C3CCCN4CCCC(CN12)C34 (stereo not shown)	Procathepsin L (CTSL, Homo sapiens, UniProt P07711)	enzyme activity, inhibitor	–	100 µM	remaining activity	107%
CC(C)CC(=O)OC[C@H]1O[C@@](C#N)(c2ccc3c(N)ncnn23)[C@H](O)[C@@H]1O	AGTR1 (Homo sapiens, UniProt P30556)	cell-free assay	–	20 µM	inhibition	3%
COc1cc(CCNC(C)c2ccccc2O)c(OC)cc1C#N (stereo not shown)	Htr2c (Mus musculus, UniProt P34968)	G protein activation, agonist, BRET	–	–	EC50	210 nM
CC(C)C[C@H](NC(=O)[C@H](Cc1ccccc1)NC(=O)[C@H](Cc1ccccc1)NC(=O)Cc1ccc(-c2ccccc2)cc1)C(=O)N[C@@H](CCCCN)C(=O)N[C@@H](CCCNC(=N)N)C(=O)N[C@H](C(=O)N[C@@H](Cc1c[nH]c2ccccc12)C(=O)N[C@@H](CCCCN)C(=O)N[C@@H](CCCNC(=N)N)C(=O)O)C(C)C	–	metabolic stability, mass spectrometry	mouse, liver microsomes	5 min	compound remaining	42.4%
N.N.[Cl][Pt][Cl]	REH	cell growth or viability, ATP luminescence	–	10 µM, 72 h	inhibition	100%
CC(=O)N[C@@H](CCCNC(=N)N)C(=O)N[C@@H](CCC(N)=O)C(=O)N[C@@H](C)C(=O)N[C@H](CCCNC(=N)N)C(=O)c1nc2ccccc2s1	TMPRSS2	enzyme activity, inhibitor	–	1 nM	activity vs control	23%
Cc1nn(C)cc1-c1nc2c(N3CCN(Cc4ccc(Cl)cc4)CC3)c(Cl)cnc2[nH]1	RIPK4 (Homo sapiens, UniProt P57078)	binding, competition with immobilised ligand	–	1 µM	remaining binding	74%
CC[C@H](C)[C@H](NC(=O)[C@H](Cc1ccccc1)NC(=O)[C@H](CCC(=O)O)NC(=O)[C@H](CCCNC(=N)N)NC(=O)[C@H](C)NC(=O)[C@H](C)NC(=O)[C@H](CCC(N)=O)NC(=O)[C@H](CCC(=O)O)NC(=O)[C@H](CCC(=O)O)NC(=O)[C@H](CC(C)C)NC(=O)[C@H](Cc1ccc(O)cc1)NC(=O)[C@H](CO)NC(=O)[C@H](CO)NC(=O)[C@@H](NC(=O)[C@H](CC(=O)O)NC(=O)[C@H](CO)NC(=O)[C@@H](NC(=O)[C@H](Cc1ccccc1)NC(=O)[C@@H](NC(=O)CNC(=O)[C@H](CCC(=O)O)NC(=O)[C@H](C)NC(=O)CCc1c[nH]cn1)[C@@H](C)O)[C@@H](C)O)C(C)C)C(=O)N[C@@H](C)C(=O)N[C@@H](Cc1c[nH]c2ccccc12)C(=O)N[C@@H](CC(C)C)C(=O)N[C@H](C(=O)N[C@@H](CCCNC(=N)N)C(=O)NCC(=O)N[C@@H](CCCNC(=N)N)C(=O)N[C@@H](CCCCNC(=O)COCCOCCNC(=O)COCCOCCNC(=O)CC[C@H](NC(=O)CCCCCCCCCCCCCCCCC(=O)O)C(=O)O)C(=O)NCC(=O)NCC(=O)N[C@@H](CO)C(=O)N[C@@H](CCCCNc1c(NCCCCCN(O)C(=O)CCC(=O)NCCCCCN(O)C(=O)CCC(=O)NCCCCCN(O)C(C)=O)c(=O)c1=O)C(=O)O)C(C)C	–	–	rat, plasma	subcutaneous, 20 nmol/kg	bioavailability	50.8%
Nc1ncc(-c2nc(N3CCOCC3)nc(N3CCOCC3)n2)c(C(F)F)n1	MET (Homo sapiens, UniProt P08581)	cell-free assay, competition with immobilised ligand	–	10 µM	remaining binding	63%
c1cncc([C@@H]2CCCN2)c1	HTR6 (Homo sapiens, UniProt P50406)	ligand displacement	–	50 µM	inhibition	5%
C#Cc1n[nH]c2c(-c3cn([C@@H](C)c4ccccn4)c(=O)[nH]c3=O)cc(F)cc12	NTRK3 (Homo sapiens, UniProt Q16288)	enzyme activity, inhibitor	–	0.1 µM	inhibition	12.1%

A few entries again:
Structure (SMILES)	tested on	assay	system	setting	endpoint	result
N=C(N)NCCC[C@H](N)C(=O)N[C@@H](CCC(N)=O)C(=O)N[C@@H](Cc1ccc(Cl)cc1)C(=O)N[C@H](CCCNC(=N)N)C(=O)c1nc2ccccc2s1	TMPRSS2	enzyme activity, inhibitor	–	1 nM	activity vs control	95%
